Published values from different studies.
Lines come from different studies, so protocols differ. “And” joins repeats or separate records; there may be more than shown. ± gives the spread as reported.
Sequence of UniProt Q9Y6M4 (whole entry, looked up): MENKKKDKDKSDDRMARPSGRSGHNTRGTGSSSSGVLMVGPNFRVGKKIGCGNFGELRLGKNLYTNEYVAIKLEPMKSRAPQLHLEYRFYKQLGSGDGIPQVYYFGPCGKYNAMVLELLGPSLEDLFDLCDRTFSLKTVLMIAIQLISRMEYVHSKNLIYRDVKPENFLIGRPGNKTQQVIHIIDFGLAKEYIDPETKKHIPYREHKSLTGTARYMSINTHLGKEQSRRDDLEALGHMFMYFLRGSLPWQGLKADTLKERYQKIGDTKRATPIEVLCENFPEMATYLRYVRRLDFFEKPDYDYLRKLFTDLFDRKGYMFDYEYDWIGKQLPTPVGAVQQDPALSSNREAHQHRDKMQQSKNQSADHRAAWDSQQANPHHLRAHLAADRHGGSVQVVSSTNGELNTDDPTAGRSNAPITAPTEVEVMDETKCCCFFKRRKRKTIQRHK
Sequence of UniProt Q9Y6R4 (whole entry, looked up): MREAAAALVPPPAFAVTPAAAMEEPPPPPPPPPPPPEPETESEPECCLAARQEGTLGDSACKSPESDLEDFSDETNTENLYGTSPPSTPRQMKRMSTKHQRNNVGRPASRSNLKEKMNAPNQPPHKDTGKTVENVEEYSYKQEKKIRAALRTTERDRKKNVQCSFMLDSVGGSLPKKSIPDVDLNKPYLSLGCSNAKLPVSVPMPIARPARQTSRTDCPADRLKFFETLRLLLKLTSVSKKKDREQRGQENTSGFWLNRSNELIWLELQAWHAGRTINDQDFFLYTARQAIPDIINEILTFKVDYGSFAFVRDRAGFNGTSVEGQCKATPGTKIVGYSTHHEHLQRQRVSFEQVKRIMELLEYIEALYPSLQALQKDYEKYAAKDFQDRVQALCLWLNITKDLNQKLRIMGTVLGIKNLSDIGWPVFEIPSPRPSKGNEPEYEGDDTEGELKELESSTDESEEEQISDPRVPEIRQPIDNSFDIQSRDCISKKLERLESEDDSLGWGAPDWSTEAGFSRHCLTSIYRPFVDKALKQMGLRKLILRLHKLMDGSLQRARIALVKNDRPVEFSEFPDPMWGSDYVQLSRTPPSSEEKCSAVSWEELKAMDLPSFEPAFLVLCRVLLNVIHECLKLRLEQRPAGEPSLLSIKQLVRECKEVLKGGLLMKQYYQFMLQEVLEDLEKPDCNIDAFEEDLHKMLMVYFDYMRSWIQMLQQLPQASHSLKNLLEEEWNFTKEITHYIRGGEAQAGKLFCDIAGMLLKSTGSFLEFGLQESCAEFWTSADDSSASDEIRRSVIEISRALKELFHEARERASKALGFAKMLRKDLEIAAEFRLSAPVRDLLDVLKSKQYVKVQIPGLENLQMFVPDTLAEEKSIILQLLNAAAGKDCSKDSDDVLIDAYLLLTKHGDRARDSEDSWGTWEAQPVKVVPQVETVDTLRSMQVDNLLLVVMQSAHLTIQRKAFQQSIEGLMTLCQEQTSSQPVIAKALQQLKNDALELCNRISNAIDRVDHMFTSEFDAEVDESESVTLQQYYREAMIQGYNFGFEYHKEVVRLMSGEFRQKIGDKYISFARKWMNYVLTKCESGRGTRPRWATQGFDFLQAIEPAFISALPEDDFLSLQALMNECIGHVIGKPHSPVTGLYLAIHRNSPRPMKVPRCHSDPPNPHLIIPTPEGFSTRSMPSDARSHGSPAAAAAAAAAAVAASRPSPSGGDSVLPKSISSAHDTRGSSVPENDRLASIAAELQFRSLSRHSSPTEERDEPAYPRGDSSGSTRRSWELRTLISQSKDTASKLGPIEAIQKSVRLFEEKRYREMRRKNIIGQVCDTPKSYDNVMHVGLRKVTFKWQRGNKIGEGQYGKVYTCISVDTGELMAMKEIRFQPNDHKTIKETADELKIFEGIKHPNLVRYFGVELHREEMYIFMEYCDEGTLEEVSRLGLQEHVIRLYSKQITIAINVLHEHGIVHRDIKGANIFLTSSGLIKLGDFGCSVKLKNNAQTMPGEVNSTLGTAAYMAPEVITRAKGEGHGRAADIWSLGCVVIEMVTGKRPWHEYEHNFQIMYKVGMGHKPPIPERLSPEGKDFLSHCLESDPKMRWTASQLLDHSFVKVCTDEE

O=c1n(CCNCCOS(=O)(=O)c2ccccc2)c(=O)n(S(=O)(=O)c2ccccc2)c(=O)n1S(=O)(=O)c1ccccc1  IC50 (A549; cell growth or viability, MTT; 24 h): 21.5 µg/mL
COc1ccccc1-c1n[nH]c2nc(NC3CCN(C(=O)Cc4ccc(F)cc4F)CC3)ncc12  relative abundance (bead binding, competition bead pull-down, item: LINJ.34.0030; Leishmania donovani extract; 10 µM; baseline: vehicle): 0.82
CCCCCCCC(=O)NCCCC[C@H](NC(=O)CCCCCCC)C(=O)N[C@@H](CCCCNC(=O)CCCCCCC)C(=O)NCC(=O)NCC(=O)NCC(=O)N[C@@H](CS)C(=O)N[C@@H](CCCNC(=N)N)C(=O)N[C@@H](CCCCN)C(=O)N1CCC[C@H]1C(=O)N[C@@H](CS)C(=O)N[C@@H](CCCNC(=N)N)C(=O)N[C@@H](CCCCN)C(=O)N1CCC[C@H]1C(=O)N[C@@H](CS)C(=O)N[C@@H](CCCNC(=N)N)C(=O)N[C@@H](CCCCN)C(=O)N1CCC[C@H]1C(=O)N[C@@H](CS)C(=O)N[C@@H](CCCNC(=N)N)C(=O)N[C@@H](CCCCN)C(=O)N1CCC[C@H]1C(N)=O  IC50 (HEK293; cell growth or viability, MTT; 24 h): 276 µM
C#CCCCC[C@H](C)C[C@@H](C)C(=O)N(C)[C@@H](C)C(=O)N1CCC[C@H]1C(=O)N(C)[C@H](C(=O)N(C)[C@H](C(=O)OC)C(C)C)C(C)C  IC50 (HEK293; cell growth or viability, SRB): 69.5 µM and 127 µM and 95.6 µM
CC(C)C12OC1C1OC13C1(C)CCC4=C(COC4=O)C1CC1OC13C2OC(=O)CCC(=O)OC1OC(CO)C(O)C(O)C1O (centres unmarked)  IC50 (PC-3; cell growth or viability, XTT; 47 h): 0.5 µM
COc1ccccc1-c1n[nH]c2nc(N[C@H]3CC[C@H](NS(=O)(=O)CC(C)C)CC3)ncc12  relative abundance (bead binding, competition bead pull-down, item: LMJF.25.1180; Leishmania donovani extract; 10 µM; baseline: vehicle): 0.72
CS(C)(=O)=Nc1ccc(-c2ccc(-c3nc4cc(O[C@@H]5CO[C@H]6[C@@H]5OC[C@H]6O)[nH]c4cc3F)cc2)cc1  inhibition (CSNK1G3 (Homo sapiens, UniProt Q9Y6M4); enzyme activity, inhibitor; 10 µM): -8%
CC(C)C12OC1C1OC13C1(C)CCC4=C(COC4=O)C1CC1OC13C2OC(=O)CCCOC1OC(CO)C(O)C(O)C1O (centres unmarked)  IC50 (LNCaP; cell growth or viability, XTT; 47 h): 0.45 µM
CSCC[C@H](NC(=O)[C@H](CCCNC(=N)N)NC(=O)[C@H](CCCNC(=N)N)NC(=O)[C@@H](N)CCCCN)C(=O)N[C@@H](CCCCN)C(=O)N[C@@H](Cc1c[nH]c2ccccc12)C(=O)N[C@@H](CCCCN)C(=O)N[C@@H](CCCCN)C(=O)N[C@@H](CC(C)C)C(=O)N[C@@H](CCC(=O)O)C(=O)N[C@H](C(=O)N[C@@H](C)C(=O)N[C@H](C(=O)N[C@@H](CC(N)=O)C(=O)N[C@@H](CC(C)C)C(=O)N[C@@H](C)C(=O)N[C@@H](Cc1c[nH]c2ccccc12)C(=O)O)C(C)C)[C@@H](C)O  IC50 (MEC1; cell growth or viability, flow cytometry; 90 min): > 15 µM
CCCCCCCC(=O)NCCCC[C@H](NC(=O)CCCCCCC)C(=O)N[C@@H](CCCCNC(=O)CCCCCCC)C(=O)NCC(=O)NCC(=O)NCC(=O)N[C@@H](CS)C(=O)N[C@@H](CCCNC(=N)N)C(=O)N[C@@H](CCCCN)C(=O)N1CCC[C@H]1C(=O)N[C@@H](CS)C(=O)N[C@@H](CCCNC(=N)N)C(=O)N[C@@H](CCCCN)C(=O)N1CCC[C@H]1C(N)=O  IC50 (HCE-T; cytotoxicity, MTT; 24 h): 118 µM
O=C1NC2(CC2)COc2ncc(F)cc2[C@H]2COCCN2c2ccn3ncc1c3n2  total cholesterol (Sprague-Dawley rat, male, serum; oral, 5 mg/kg/day, 4 weeks daily, end of treatment): 1.53 ± 0.21 mmol/L
C[C@H]1[C@H](OC(=O)CCC(=O)OCCC2CCN(CC(=O)Nc3ccc([N+](=O)[O-])c(C(F)(F)F)c3)CC2)O[C@@H]2O[C@@]3(C)CC[C@H]4[C@H](C)CC[C@@H]1[C@@]24OO3  IC50 (A2780; cell growth or viability, CCK-8): 0.88 µM
O=C(c1cc(Cc2n[nH]c(=O)c3ccccc23)ccc1F)N1CC(CNC2CC2)C1  IC50 (CAPAN-1): 0.13 µM
CC(C)(C)C(=O)OCOP(=O)(OCOC(=O)C(C)(C)C)C1CCCN(O)C1=O (centres unmarked)  log TGI (SR): -5.1 log M
O=C1C=CC(=O)c2ccccc21  IC50 (MOLT-3; cell growth or viability, XTT): 5.12 µM
Cc1cc(Nc2nc(C[C@@]3(C(=O)O)CCN(Cc4cccc(Cl)c4F)[C@H](C)C3)cc(C)c2F)[nH]n1  IC50 (DU-4475; cell growth or viability, ATP luminescence; 5 days): 0.0964 µM
CC(=O)N[C@H](C(=O)N[C@@H](CCCNC(=N)N)C(=O)N[C@@H](CCCCN)C(=O)N[C@@H](CCCNC(=N)N)C(=O)N[C@]1(C)CCCC=CCCC[C@@](C)(C(=O)N[C@@H](CC(C)C)C(=O)N[C@@H](CC(C)C)C(=O)N[C@@H](CCC(N)=O)C(=O)N[C@@H](CCC(=O)O)C(=O)N[C@@H](CCCNC(=N)N)C(=O)N[C@@H](CCC(=O)O)C(=O)N[C@@H](CC(C)C)C(=O)N[C@H](C(=O)N[C@@H](CCC(=O)O)C(N)=O)C(C)C)NC(=O)[C@H](CCCNC(=N)N)NC(=O)[C@H](CC(C)C)NC1=O)C(C)C  IC50 (A-431 (wild-type EGFR); cell viability; 18 h): ~91 µM
CC(=O)N[C@H](C(=O)N[C@@H](CCCNC(=N)N)C(=O)N[C@@H](CCCCN)C(=O)N[C@@H](CCCNC(=N)N)C(=O)N[C@]1(C)CCCCCCC=CCCC[C@@](C)(C(=O)N[C@@H](CCCNC(=N)N)C(=O)N[C@@H](CCC(=O)O)C(=O)N[C@@H](CC(C)C)C(=O)N[C@H](C(=O)N[C@@H](CCC(=O)O)C(N)=O)C(C)C)NC(=O)[C@H](CCC(N)=O)NC(=O)[C@H](CC(C)C)NC(=O)[C@H](CC(C)C)NC(=O)[C@H](CCCNC(=N)N)NC(=O)[C@H](CCCNC(=N)N)NC(=O)[C@H](CC(C)C)NC1=O)C(C)C  IC50 (A-431; cell viability; 18 h, serum-free): 2.99 µM
CC(=O)N[C@H](C(=O)N[C@@H](CCCNC(=N)N)C(=O)N[C@@H](CCCCN)C(=O)N[C@@H](CCCNC(=N)N)C(=O)N[C@H](C(=O)N[C@@H](CC(C)C)C(=O)N[C@@H](CCCNC(=N)N)C(=O)N[C@]1(C)CCCCCCC=CCCC[C@@](C)(C(=O)N[C@H](C(=O)N[C@@H](CCC(=O)O)C(N)=O)C(C)C)NC(=O)[C@H](CCC(=O)O)NC(=O)[C@H](CCCNC(=N)N)NC(=O)[C@H](CCC(=O)O)NC(=O)[C@H](CCC(N)=O)NC(=O)[C@H](CC(C)C)NC(=O)[C@H](CC(C)C)NC1=O)[C@@H](C)O)C(C)C  IC50 (A-431 (wild-type EGFR); cell viability; 18 h): > 100 µM
Cc1ccc(C(C)C)cc1.O=C(N=P(c1ccccc1)(c1ccccc1)c1ccccc1)c1ccccn1.[Cl-].[Cl][Ru+]  IC50 (IMR-90; cell growth or viability, MTT): 30.4 µM
Cc1ccc2c(Cl)cc(Cl)c([O-])c2n1.Cc1ccc2c(Cl)cc(Cl)c([O-])c2n1.[Co+2].c1cnc2c(c1)c1nccnc1c1cccnc12  IC50 (HL-7702 normal hepatocytes; cell viability, MTT; 48 h): 60.2 ± 0.77 µM
C#CCCCC[C@H](C)C[C@@H](C)C(=O)N(C)[C@H](C(=O)N(C)[C@@H](Cc1ccccc1)C(=O)N1CCC[C@H]1C(=O)N1CCC[C@H]1C(C)=O)C(C)C  IC50 (HEK293; cell growth or viability, SRB): 5720 µM and 5700 µM and 5860 µM
CC(C)C[C@H](NC(=O)[C@H](Cc1ccccc1)NC(=O)[C@H](C)NC(=O)[C@H](CS)NC(=O)CNC(=O)[C@@H](N)CO)C(=O)N[C@@H](CO)C(=O)N[C@H](C(=O)N[C@@H](CCCCN)C(=O)N[C@@H](CCCCN)C(=O)N[C@@H](CCC(N)=O)C(=O)N[C@@H](Cc1ccccc1)C(=O)N[C@@H](CCC(=O)O)C(=O)N[C@@H](CCC(=O)O)C(=O)N[C@@H](CC(C)C)C(=O)N[C@H](C(=O)N[C@@H](CC(C)C)C(=O)NCC(=O)N[C@@H](CCC(=O)O)C(=O)N[C@@H](Cc1ccccc1)C(=O)N[C@@H](CC(C)C)C(=O)N[C@@H](CCCCN)C(=O)N[C@@H](CC(C)C)C(=O)N[C@@H](CC(=O)O)C(=O)N[C@@H](CCCNC(=N)N)C(=O)N[C@H](CCCNC(=N)N)C(=O)N[C@@H](CCCNC(=N)N)C(=O)N[C@@H](CCCCN)C(=O)O)[C@@H](C)O)C(C)C  IC50 (A549 SMAC-expressing; cell death, annexin V/PI flow cytometry; 24 h, serum-free medium): 12 µM
CN(C)[C@H]1C[C@@]23CC[C@@]4(O2)C(=CC[C@]2(C)[C@@H](c5ccc6ccncc6c5)CC[C@H]24)C=C3[C@@H](O)[C@@H]1O  inhibition (MAP3K4 (Homo sapiens, UniProt Q9Y6R4); ATP probe labelling, inhibitor, KiNativ profiling; 1 µM): 6.5%
CC[C@H](C)[C@H](NC(=O)[C@H](C)NC(=O)[C@H](Cc1c[nH]cn1)NC(=O)[C@H](CC(C)C)NC(=O)CNC(=O)[C@H](Cc1ccccc1)NC(=O)CNC(=O)[C@H](Cc1ccc(O)cc1)NC(=O)CNC(=O)[C@H](CCCCN)NC(=O)[C@@H](NC(=O)[C@H](Cc1ccccc1)NC(=O)[C@@H](NC(=O)[C@H](CC(=O)O)NC(=O)[C@H](CCCNC(=N)N)NC(=O)[C@H](C)NC(=O)[C@H](CO)NC(=O)[C@H](CCCCN)NC(=O)CNC(=O)[C@H](CC(C)C)NC(=O)[C@H](CC(=O)O)NC(=O)[C@H](C)NC(=O)[C@H](Cc1ccc(O)cc1)NC(=O)[C@@H](NC(=O)[C@@H]1CCCN1C(=O)[C@@H]1CCCN1C(=O)[C@@H](NC(=O)[C@H](C)NC(=O)[C@@H](N)CCSC)C(C)C)[C@@H](C)O)C(C)C)[C@@H](C)O)C(=O)N[C@@H](Cc1ccc(O)cc1)C(=O)N1CCC[C@H]1C(=O)N[C@@H](CCCNC(=N)N)C(=O)N[C@@H](Cc1c[nH]cn1)C(=O)O  IC50 (MEC1; cell growth or viability, flow cytometry; 90 min): > 16.7 µM
Cc1cc(Oc2nc(N3CC[C@@H](c4ccncc4)C3)ncc2F)[nH]n1  IC50 (liver cancer cell lines; cell proliferation; average over lines): 44.7 µM

Excerpt of the above:
CC(=O)N[C@H](C(=O)N[C@@H](CCCNC(=N)N)C(=O)N[C@@H](CCCCN)C(=O)N[C@@H](CCCNC(=N)N)C(=O)N[C@H](C(=O)N[C@@H](CC(C)C)C(=O)N[C@@H](CCCNC(=N)N)C(=O)N[C@]1(C)CCCCCCC=CCCC[C@@](C)(C(=O)N[C@H](C(=O)N[C@@H](CCC(=O)O)C(N)=O)C(C)C)NC(=O)[C@H](CCC(=O)O)NC(=O)[C@H](CCCNC(=N)N)NC(=O)[C@H](CCC(=O)O)NC(=O)[C@H](CCC(N)=O)NC(=O)[C@H](CC(C)C)NC(=O)[C@H](CC(C)C)NC1=O)[C@@H](C)O)C(C)C  IC50 (A-431 (wild-type EGFR); cell viability; 18 h): > 100 µM
Cc1ccc(C(C)C)cc1.O=C(N=P(c1ccccc1)(c1ccccc1)c1ccccc1)c1ccccn1.[Cl-].[Cl][Ru+]  IC50 (IMR-90; cell growth or viability, MTT): 30.4 µM
